Experimental data from different studies.
Protocols differ between the studies behind these lines. Values joined by “and” are separate records of one study, mostly repeats; a detail may differ.

`C[C@@H]1O[C@@H](O[C@H]2C[C@@H](O)[C@]3(CO)[C@H]4[C@H](O)C[C@]5(C)[C@@H](C6=CC(=O)OC6)CC[C@]5(O)[C@@H]4CC[C@]3(O)C2)[C@H](O)[C@H](O)[C@H]1O` gave an inhibition of 91.8% (BT-16; cell viability, MTT; 10 µM, 72 h).
The activity score of `CC1=CC(=O)c2c(O)cccc2C1=O` is reported as 3.9 (human iPSC-derived cardiomyocytes; MyBP-C/MYH ratio, plate-normalised SD score; concentration not given, primary screen; direction not given).
For `COc1c(C)c2c(c(O)c1C/C=C(\C)CCC(=O)O)C(=O)OC2`, the IC50 was 1950 nM (UO-31; cell proliferation; kidney cancer).
With `CN[C@@H]1C[C@H]2O[C@@](C)([C@@H]1OC)n1c3ccccc3c3c4c(c5c6ccccc6n2c5c31)C(=O)NC4` the ATP level was 19.7% (iCell Cardiomyocytes (hiPSC-derived); CellTiter-Glo; concentration not given, 24 h; relative to: control).
The optical density of `CC(C)=CCC[C@](C)(O)[C@H]1CC[C@]2(C)[C@@H]1[C@H](O)C[C@@H]1[C@@]3(C)CC[C@H](O)C(C)(C)[C@@H]3[C@@H](O[C@@H]3O[C@H](CO)[C@@H](O)[C@H](O)[C@H]3O)C[C@]12C` is reported as 1.16 a.u. and 1.2 a.u. and 1 a.u. and 1.12 a.u. and 1.17 a.u. (HepG2; cell viability, CCK-8; 20 µM; higher = more viable cells).
For `COc1cc([C@@H]2c3cc4c(cc3C[C@H]3COC(=O)[C@@H]32)OCO4)cc(OC)c1OC`, viability read “decreased” (neuroblastoma M2, MYCN overexpressing; SRB; concentration not given, 48 h, with: doxycycline).
`Cn1nccc1Nc1nccc(-c2cc3c(s2)C(C)(C)N(CCN2CCOCC2)C3=O)n1` gave a PI-positive cells of 24.5 count and 14.5 count and 21.4 count (HCT116; IncuCyte; concentration not given, 40 (unit not given)).
With `COCCCn1c(N)c(C(=O)NC2CCCC2)c2nc3ccccc3nc21` the viability was 129% (HBL-1; 0.5 µM, 120 h).
With `O=c1c2ccccc2[se]n1-c1ccccc1` the activity score was 5 (human iPSC-derived cardiomyocytes; MyBP-C/MYH ratio, plate-normalised SD score; concentration not given, primary screen; direction not given).
`COc1cc(CCC[P+](c2ccccc2)(c2ccccc2)c2ccccc2)c(OC)c2c1OCO2.[I-]` has an LC50 of > -4 log M (NCI-H322M; SRB).
The GI50 of `CC(C)N1CCC(NC2CCN(c3cccc(-c4cc5cc(F)ccc5[nH]4)c3)CC2)CC1` is reported as 1360 nM (LOX IMVI).
For `Nc1ncc(-c2nc(N3CCOCC3)nc(N3CCOCC3)n2)c(C(F)F)n1`, the GI50 was 126 nM (Daoy; 72 h).
The plating efficiency of `Cc1ccc2cc3c(ccc4ccccc43)c3c2c1CC3` is reported as 2% (BALB/c 3T3; 15 µM, positive control).
With `COc1c(CCC[P+](c2ccccc2)(c2ccccc2)c2ccccc2)cc2c(c1OC)OCO2.[I-]` the Log10LC50 was -4.35 log M (LOX IMVI; SRB).
Under “spheroid area increase”, `O=S(=O)(c1ccc(O)cc1)c1ccc(O)cc1` is recorded as 196% (HepG2 spheroids; planimetry; 10 µM, 24 to 96 h; relative to: mean area of 72 h spheroids).
`CC[C@H](C)[C@H](NC(=O)[C@H](C)NC(=O)[C@H](CCCCN)NC(=O)[C@H](CC(C)C)NC(=O)[C@H](C)NC(=O)[C@@H](NC(=O)[C@H](Cc1c[nH]cn1)NC(=O)[C@H](CC(C)C)NC(=O)[C@@H](NC(=O)[C@@H](NC(=O)[C@H](CCCCN)NC(=O)[C@@H](NC(=O)[C@H](C)NC(=O)[C@H](CCCCN)NC(=O)[C@H](CCCCN)NC(=O)[C@H](Cc1ccccc1)NC(=O)[C@@H](NC(=O)[C@H](CCCCN)NC(=O)[C@H](CC(C)C)NC(=O)[C@H](Cc1ccccc1)NC(=O)[C@H](CO)NC(=O)[C@H](CCCCN)NC(=O)[C@H](Cc1c[nH]c2ccccc12)NC(=O)[C@@H](N)CCCCN)[C@@H](C)O)C(C)C)[C@@H](C)O)C(C)C)[C@@H](C)O)C(=O)N[C@@H](CO)C(=O)N[C@@H](CO)C(=O)N[C@@H](CS)C(N)=O` has an EC50 of 22000 nM (human red blood cells; pH 5.5; relative to: Triton X-100).

Repeated from above:
With `COCCCn1c(N)c(C(=O)NC2CCCC2)c2nc3ccccc3nc21` the viability was 129% (HBL-1; 0.5 µM, 120 h).
